Results collected from several papers.
Compare with care: the assays were run in different laboratories. Several values in a cell are separate wells, animals, samples, runs or records. ± gives the spread as reported.

SMILES	tested on	test	test system	conditions	scale	measurement	result
O=c1n(CCNCCOS(=O)(=O)c2ccccc2)c(=O)n(S(=O)(=O)c2ccccc2)c(=O)n1S(=O)(=O)c1ccccc1	HUVEC	cell growth or viability, MTT	–	200 µg/mL, 48 h	–	viability	17.9%
CC(=O)N[C@@H](Cc1c[nH]c2ccccc12)C(=O)NCCCCCCCCCCCC(=O)NCCCC[C@@H]1NC(=O)[C@H](CCCNC(=N)N)NC(=O)[C@H](CCCNC(=N)N)NC(=O)[C@H](CCCNC(=N)N)NC(=O)[C@H](CCCNC(=N)N)NC(=O)[C@H](CCCNC(=N)N)NC1=O	CCRF-CEM	MTS	–	up to 10 µM, 24 h	–	viability	≥ 89%
CNC(=O)CC1CN(C(=O)c2ccc(C(F)(F)F)cn2)CCN1C(=O)c1cccnn1 (stereo not drawn)	Huh-7-ACE2	CellTiter-Glo	–	0.0122 µM, 48 h, unit not given	baseline: DMSO	viability	0.971 and 0.827 and 0.997
NC(=O)N/N=C/c1ccc(OCc2ccccc2)cc1	IMR-32	MTT	–	300 µg/mL, 24 h	baseline: untreated control	viability	30.3%
CNC(=O)C[C@H](Cc1ccncc1)NC(=O)[C@@H](Cc1cccc(Br)c1)NC(=O)[C@@H](N)Cc1ccsc1	Huh-7-ACE2	CellTiter-Glo	–	12.5 µM, 48 h, unit not given	baseline: DMSO	viability	1.15 and 1.05 and 1.09
CC[C@H](C)[C@H](NC(=O)[C@H](CO)NC(=O)[C@H](Cc1ccc(O)cc1)NC(=O)[C@H](Cc1ccc(O)cc1)NC(=O)[C@H](CC(N)=O)NC(=O)CNC(=O)[C@H](CO)NC(=O)[C@H](Cc1ccc(O)cc1)NC(=O)[C@H](CO)NC(=O)[C@H](CO)NC(=O)[C@H](CC(N)=O)NC(=O)COCCOCCNC(=O)CN1CCN(CC(=O)O)CCN(CC(=O)O)CCN(CC(=O)O)CC1)C(=O)N[C@@H](CC(C)C)C(N)=O [copper-64 labelled]	–	dynamic PET	KPC mouse Ptf1a-CreER tdTomato, metastases	intravenous, 4.6 MBq/mouse, 8.5 min, 84 d after tamoxifen	–	tissue uptake	15.3 %ID/mL
CC(C)(C)C(=O)OCOP(=O)(OCOC(=O)C(C)(C)C)C1CCCN(O)C1=O (stereo not drawn)	SF-539	–	–	–	–	log LC50	> -4 log M
CNC(=O)C[C@H](Cc1ccc(F)cc1)NC(=O)[C@@H](Cc1ccc(Cl)cc1Cl)NC(=O)[C@H](N)Cc1ccccc1C#N	Huh-7-ACE2	CellTiter-Glo	–	0.0122 µM, 48 h, unit not given	baseline: DMSO	viability	0.934 and 1.05 and 1.04
CC[C@H](C)[C@H](NC(=O)[C@H](C)NC(=O)[C@H](CCCCN)NC(=O)[C@H](CC(C)C)NC(=O)[C@@H](N)Cc1ccccc1)C(=O)N[C@@H](CCCCN)C(=O)N[C@@H](CCCCN)C(=O)N[C@@H](Cc1ccccc1)C(=O)NCC(=O)N[C@@H](CCCCN)C(=O)N[C@@H](CCC(=O)O)C(=O)N[C@@H](Cc1ccccc1)C(=O)N[C@@H](CCCCN)C(=O)N[C@@H](CCCCN)C(=O)N[C@H](C(=O)NCC(=O)N[C@@H](C)C(=O)N[C@@H](CCCCN)C(=O)N[C@@H](CC(C)C)C(=O)N[C@@H](CCCCN)C(=O)O)[C@@H](C)CC	HeLa	cell growth or viability, MTT	–	64 µg/mL	–	viability	93.4%
COc1ccccc1-c1n[nH]c2nc(N[C@H]3CC[C@H](NS(=O)(=O)CC(C)C)CC3)ncc12	–	bead binding, competition bead pull-down, measured: LINJ.25.2090	Leishmania donovani extract	10 µM	baseline: vehicle	relative abundance	1.48
O=C1NC2(CC2)COc2ncc(F)cc2[C@H]2COCCN2c2ccn3ncc1c3n2	–	–	Sprague-Dawley rat, female, serum	oral, 20 mg/kg/day, end of recovery, 4-week subacute toxicity	–	serum total protein	65.1 ± 3.6 g/L
COc1ccccc1-c1n[nH]c2nc(NC3CCN(C(=O)Cc4ccc(F)cc4F)CC3)ncc12	–	bead binding, competition bead pull-down, measured: LINJ.36.0800	Leishmania donovani extract	10 µM	baseline: vehicle	relative abundance	0.95
COC(=O)c1cc2c(=O)n3ccccc3nc2n1Cc1ccccc1	Vero	MTT	–	0.4 µM, 24 (unit not given)	–	viability	86.5%
CC[C@H](C)[C@H](NC(=O)[C@H](C)NC(=O)[C@H](CCCCN)NC(=O)[C@H](CCCCN)NC(=O)[C@@H](N)CCCNC(=N)N)C(=O)N[C@@H](CCCCN)C(=O)N[C@@H](CC(C)C)C(=O)N[C@H](C(=O)N[C@@H](CCCCN)C(=O)N[C@@H](CCCCN)C(=O)N[C@@H](CC(C)C)C(=O)N[C@H](C(=O)N[C@@H](CCCCN)C(=O)N[C@@H](CCCCN)C(=O)N[C@@H](CC(C)C)C(=O)N[C@@H](CCCCN)C(=O)N[C@@H](CCCCN)C(=O)N[C@@H](C)C(=O)N[C@@H](CC(C)C)C(=O)N[C@@H](CCCCN)C(=O)O)C(C)C)C(C)C	HeLa	cell growth or viability, MTT	–	64 µg/mL	–	viability	70.5%
Cc1n[nH]c(C)c1CCCOc1cc(OCCCCCCNCCOCCOCCn2cc(CNc3ccc(C(=O)O)cc3)nn2)cc(C(=O)O)c1	MCF7	cell growth or viability, MTT	–	100 µM, 72 h	–	viability	104% and 111% and 90%

Repeated from above:
SMILES	tested on	test	test system	conditions	scale	measurement	result
CC(=O)N[C@@H](Cc1c[nH]c2ccccc12)C(=O)NCCCCCCCCCCCC(=O)NCCCC[C@@H]1NC(=O)[C@H](CCCNC(=N)N)NC(=O)[C@H](CCCNC(=N)N)NC(=O)[C@H](CCCNC(=N)N)NC(=O)[C@H](CCCNC(=N)N)NC(=O)[C@H](CCCNC(=N)N)NC1=O	CCRF-CEM	MTS	–	up to 10 µM, 24 h	–	viability	≥ 89%
CNC(=O)CC1CN(C(=O)c2ccc(C(F)(F)F)cn2)CCN1C(=O)c1cccnn1 (stereo not drawn)	Huh-7-ACE2	CellTiter-Glo	–	0.0122 µM, 48 h, unit not given	baseline: DMSO	viability	0.971 and 0.827 and 0.997
